Results gathered from unrelated publications.
Compare with care: the assays were run in different laboratories. Numbers after ± are the reported error.

CC(C)=CCC[C@](C)(O[C@@H]1O[C@H](CO)[C@@H](O)[C@H](O)[C@H]1O)[C@H]1CC[C@]2(C)[C@@H]1[C@H](O)C[C@@H]1[C@@]3(C)CC[C@H](O)C(C)(C)[C@@H]3[C@@H](O[C@@H]3O[C@H](CO)[C@@H](O)[C@H](O)[C@H]3O[C@@H]3O[C@@H](C)[C@H](O)[C@@H](O)[C@H]3O)C[C@]12C — MRT (Sprague Dawley rats, male, plasma; oral, 45 mg/kg, aqueous solution, together with: co-dosed pure ginsenoside mixture): 12.6 ± 7.9 h
CCN(CC)Cc1cc(Nc2ccnc3cc(Cl)ccc23)ccc1O — MRT (rat, Wistar, male, plasma; oral, 60 mg/kg): 5.78 ± 0.7 h
O=c1c(O)c(-c2ccc(O)cc2)oc2cc(OS(=O)(=O)O)cc(O)c12 — MRT (FVB mice, male, Mrp2^−/−, plasma; oral, 10 mg/kg of kaempferol): 3.28 ± 0.217 h
COc1ccc2c(c1)c(CC(=O)O)c(C)n2C(=O)c1ccc(Cl)cc1 — EC20 (cytochrome c release, ELISA; BALB/cByJ female mouse liver mitochondria; 30 min; relative to: alamethicin maximal release): > 200 µM
CO/N=C1\C[C@]2(C[C@@H]3C[C@@H](C/C=C(\C)C[C@@H](C)/C=C/C=C4\CO[C@@H]5[C@H](O)C(C)=C[C@@H](C(=O)O3)[C@]45O)O2)O[C@H](/C(C)=C/C(C)C)[C@H]1C — MRT (HPLC, non-compartmental; Corriedale lambs, parasitized, plasma; oral, 0.2 mg/kg): 85.9 ± 21.6 h
C=C1[C@H](CO)[C@@H](O)C[C@@H]1n1cnc2c(=O)[nH]c(N)nc21 — MRT (male Sprague-Dawley rat, plasma; oral, 1 mg/kg, together with: CdG 1 mg/kg): 1.97 ± 0.56 h
COc1cccc(N2CCN(C3=Nc4c(F)cccc4[C@H](CC(=O)O)N3c3cc(C(F)(F)F)ccc3OC)CC2)c1 — MRT (UHPLC-MS/MS; healthy women, plasma; intravenous infusion, 960 mg single dose, 60 min infusion, HPβCD formulation): 6.74 ± 1.21 h
NC12CC3CC(CC(C3)C1)C2 — EC20 (mitochondrial swelling; BALB/cByJ female mouse liver mitochondria; 30 min, together with: succinate + rotenone; relative to: CaCl2 maximal swelling): > 800 µM
CC(C)=CCC[C@](C)(O[C@@H]1O[C@H](CO[C@@H]2O[C@H](CO)[C@@H](O)[C@H](O)[C@H]2O)[C@@H](O)[C@H](O)[C@H]1O)[C@H]1CC[C@]2(C)[C@@H]1[C@H](O)C[C@@H]1[C@@]3(C)CC[C@H](O[C@@H]4O[C@H](CO)[C@@H](O)[C@H](O)[C@H]4O[C@@H]4O[C@H](CO)[C@@H](O)[C@H](O)[C@H]4O)C(C)(C)[C@@H]3CC[C@]12C — MRT (Sprague Dawley rats, male, plasma; oral, 86 mg/kg, aqueous solution, together with: co-dosed pure ginsenoside mixture): 11 ± 6.7 h
CC(C)NC(=O)COc1cccc(-c2nc(Nc3ccc4[nH]ncc4c3)c3ccccc3n2)c1 — MRT (male C57BL/6 mouse, brain; oral, 100 mg/kg): 3.06 h

A few entries again:
O=c1c(O)c(-c2ccc(O)cc2)oc2cc(OS(=O)(=O)O)cc(O)c12 — MRT (FVB mice, male, Mrp2^−/−, plasma; oral, 10 mg/kg of kaempferol): 3.28 ± 0.217 h
